Assay results pooled from the literature.
Parts stem from different laboratories: compare values within a part only.

Series 1 — technique: aptamer microarray, sandwich; molecule type: DNA with 2'F-ANA; medium: in vitro; tested at: 200 nM; added: Cy3 exosite-II aptamer, 400 nM; reading: higher = stronger binding
Target: Prothrombin, mature alpha-thrombin (F2, Homo sapiens, UniProt P00734)
Notes: whole 15-mer aptamer, many near background
Sequence | mean fluorescence intensity
GGTTGGTGTGGTTGG (2'F-ANA at 1 4 7 10 13) | 58.5 a.u.
GGTTGGTGTGGTTGG (2'F-ANA at 1 3 7 8 10 11) | 86.1 a.u.
GGTTGGTGTGGTTGG (2'F-ANA at 1 3 4 5 8 9 10 11 12 13 14) | 57.7 a.u.
GGTTGGTGTGGTTGG (2'F-ANA at 1 3 4 7 10 11 12 15) | 78.1 a.u.

Series 2 — technique: protein binding microarray; molecule type: double-stranded DNA, one strand shown; medium: in vitro; tested at: not given; reference: not given; reading: higher = stronger binding
Target: Histone acetyltransferase KAT6A, winged helix 2, GST fusion (KAT6A, Homo sapiens, UniProt Q92794, residues 85-181)
Notes: 8-mer, flanks averaged, mean of 2 arrays, mostly near background
Residues (chain): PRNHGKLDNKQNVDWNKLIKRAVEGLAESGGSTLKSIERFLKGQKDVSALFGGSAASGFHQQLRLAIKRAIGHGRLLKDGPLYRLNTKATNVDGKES
Sequence | E-score
GCCACGAC | 0.131
ACGCTTTA | -0.0658
ACCTCTAT | 0.00361
CCACGCCG | 0.2

Series 3 — technique: universal PBM; molecule type: double-stranded DNA, one strand shown; medium: in vitro; tested at: 600 nM; reading: higher = stronger binding
Target: Sal-like protein 4, full length isoform A (SALL4, Homo sapiens, UniProt Q9UJQ4, residues 1-1053)
Chain of UniProt Q9UJQ4 (whole entry, looked up): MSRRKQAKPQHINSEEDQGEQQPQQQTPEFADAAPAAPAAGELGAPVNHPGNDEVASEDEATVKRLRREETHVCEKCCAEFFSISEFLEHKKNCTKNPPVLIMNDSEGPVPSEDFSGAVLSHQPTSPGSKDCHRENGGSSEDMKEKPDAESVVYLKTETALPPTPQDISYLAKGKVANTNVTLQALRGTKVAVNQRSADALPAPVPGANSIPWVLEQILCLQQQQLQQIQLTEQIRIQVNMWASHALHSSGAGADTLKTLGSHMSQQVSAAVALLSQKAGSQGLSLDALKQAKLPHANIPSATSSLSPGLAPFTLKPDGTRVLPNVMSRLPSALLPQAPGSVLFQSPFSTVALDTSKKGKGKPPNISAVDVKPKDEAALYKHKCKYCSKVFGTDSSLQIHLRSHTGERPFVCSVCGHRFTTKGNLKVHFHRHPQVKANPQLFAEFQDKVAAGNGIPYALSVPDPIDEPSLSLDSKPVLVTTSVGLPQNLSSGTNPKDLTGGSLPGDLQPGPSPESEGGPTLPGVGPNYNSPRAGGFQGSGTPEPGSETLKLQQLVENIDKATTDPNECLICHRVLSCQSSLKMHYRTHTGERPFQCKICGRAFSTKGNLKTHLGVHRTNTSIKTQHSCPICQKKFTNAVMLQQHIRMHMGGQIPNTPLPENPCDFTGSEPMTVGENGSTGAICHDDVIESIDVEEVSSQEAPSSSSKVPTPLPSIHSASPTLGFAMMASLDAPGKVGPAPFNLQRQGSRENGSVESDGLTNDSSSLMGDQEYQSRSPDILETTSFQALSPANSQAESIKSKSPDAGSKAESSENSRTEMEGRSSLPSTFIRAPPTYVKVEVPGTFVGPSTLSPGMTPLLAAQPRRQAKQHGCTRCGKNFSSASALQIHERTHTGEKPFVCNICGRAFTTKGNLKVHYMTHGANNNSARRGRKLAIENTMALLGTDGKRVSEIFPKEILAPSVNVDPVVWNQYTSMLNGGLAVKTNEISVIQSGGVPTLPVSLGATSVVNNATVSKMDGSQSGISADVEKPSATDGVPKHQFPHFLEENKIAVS
Notes: 8-mer, flanks averaged, mean of replicates
Sequence | E-score
ACCCATGC | 0.00933
ACGGAGTG | -0.106
CGCCGCCG | -0.352
AAGGGTGA | -0.0626

Mixed results
Molecule | target | assay | system | conditions | how to read | measurement | result
PhoQ, residues 284 288 289 292 302 303 SSTLLI | PhoP, residues 12 14 15 18 19 QWHVF (Escherichia coli, UniProt P23836) | Sort-seq, measured: YFP reporter | E. coli | PhoQ-PhoP variant library, added: 10 µM Mg2+ | reference: high Mg2+ state, higher = stronger signaling | fold induction | 6.13

Repeated from above (series 3):
Sequence | E-score
AAGGGTGA | -0.0626
